Published values collected from several papers.
Protocols differ between the studies behind these lines. Numbers after ± are the reported error.

Compound	assay	system	setting	scale	quantity	result
Nc1ccn([C@@H]2CS[C@H](CO)O2)c(=O)n1		Tat- transgenic mouse, hippocampus	subcutaneous osmotic pump, dose not given, 5 d		drug concentration	27300 ± 3400 ng/g
O=C(Nc1nc2cccc(-c3ccc(CN4CCS(=O)(=O)CC4)cc3)n2n1)C1CC1		rheumatoid arthritis patients	oral, 100 mg twice daily, 4 weeks, TEAE regardless of relatedness		patients with Paresthesia	0%
C=CC(=O)NC1CCN(c2ncc3ncnc(Nc4ccc(Oc5ccc6c(c5)ncn6C)c(C)c4)c3n2)CC1		healthy male volunteers, plasma	oral tablet, 60 mg		dose-normalised AUC(0-inf)	223 nmol·h/L/mg
NC(=O)CC[C@@H]1NC(=O)[C@H](Cc2ccccc2)NC(=O)[C@H](Cc2ccc(O)cc2)NC(=O)CCSSC[C@@H](C(=O)N2CCC[C@H]2C(=O)N[C@H](CCCN=C(N)N)C(=O)NCC(N)=O)NC(=O)[C@H](CC(N)=O)NC1=O		human plasma	1 months, -20 °C		long-term stability deviation	≤ 6.6%
N#CCC1CCN(c2nc(Nc3ccc(N4CCC(O)CC4)cc3)c3c(=O)[nH]ncc3n2)CC1		human, plasma	oral, 80 mg once daily, day 15		AUC(0-24 h)	3280 ng·h/mL
NS(=O)(=O)c1ccc(NN=C2C(=O)Nc3ccc(C(=O)O)cc32)cc1		octanol/buffer	pH 11		logP	-1.5
O=C(O)CCC(=O)O.[2H]C([2H])([2H])Oc1cc(C)c2[nH]ccc2c1CN1CC[C@@H](C2CC2)C[C@H]1c1ccc(C(=O)O)cc1	LC-MS/MS, mean	human, plasma	50 mg, single dose, fasting		Vd/F	47 L
Cc1nc(C)c(-c2ccnc(Nc3ccc(N(C)C)c([N+](=O)[O-])c3)n2)s1		octanol/buffer	pH 11		logP	4.07
CO[C@@H]1[C@H](O)[C@@H](CO)O[C@H]1n1c([N+](=O)[O-])nc2c(=O)[nH]c(N)nc21	depurination, RP-HPLC	citrate-phosphate buffer 0.5 mM	1177 min, pH 7, 37 °C		nucleoside remaining fraction	0.713
COc1ccc2c(C)nc(Nc3nc(C)cc(O)n3)nc2c1		octanol/buffer	pH 11		logP	1.61
NC1(C(=O)N[C@@H](CCO)c2ccc(Cl)cc2)CCN(c2nc[nH]c3nccc2-3)CC1		metastatic CRPC patients	dose not given, grade 3 to 4, treatment-related, all doses, together with: enzalutamide 160 mg daily		incidence of Fatigue	0%
CC(=O)c1ccc([C@H]2C[C@@]3(C)[C@@H](CC[C@@]3(O)C(F)(F)C(F)(F)F)[C@@H]3CCC4=CC(=O)CCC4=C32)cc1		human, pooled serum	oral, 200 mg, day 1, 1.5 h		serum concentration	20.8 ng/mL
N#Cc1ccc2c(c1)[C@H]1CCCN(C(=O)c3ccc4[nH]cnc4c3)[C@H]1C2		human	40 mg, day 15		minimum ACTH level	4.3 pmol/L
Cc1cc(NC2CCN(C(=O)OC3CCN(C(=O)/C=C/CN(C)C)C3)CC2)n2ncc(C(C)C)c2n1 (centres unmarked)	CTCAE v4.0, refers to: Dizziness	patients with advanced solid tumours	oral, dose not given, TIW, grade 3 or higher		patients with TEAE	0%
CCN1/C(=C/C(C)=O)Sc2ccc(F)cc21		cynomolgus monkey	oral, 100 mg/kg, 4 h post-dose	relative to: pre-dose	systolic blood pressure change	102 ± 3.9%
Cc1cc(C)c(CNC(=O)c2cc(Cl)c3c(c2C)O[C@@](C)([C@H]2CC[C@H](N(C)C)CC2)O3)c(=O)[nH]1	refers to: Diarrhea	human patients	oral, 200 mg once daily, 1 day onset day 14		patients with grade ≥3 TEAE	4.2%
Nc1nnc(-c2cccc(Cl)c2Cl)c(N)n1		human, plasma	15 µg/mL, outliers excluded	relative to: baseline	PR interval increase	6.7 ms
OCc1nc2ccc(NCc3ccc(C(F)(F)F)cc3)cc2[nH]1		Balb/c mice, male, plasma	intravenous, 1 mg/kg		Vss	3.96 ± 0.5 L/kg
Cc1cccc(CNC(=O)c2cn(CCNC(=O)c3ccccc3Sc3c([N+](=O)[O-])ncn3C)c3cc4c(cc3c2=O)OCO4)n1		cynomolgus monkey, whole blood	1 µM, 0.25 h		remaining compound	99.8%
Cn1cncc1[C@@](N)(c1ccc(Cl)cc1)c1ccc2c(c1)c(-c1cccc(Cl)c1)cc(=O)n2C		human			blood-to-plasma ratio	0.74

A few entries again:
Compound	assay	system	setting	scale	quantity	result
CC(=O)c1ccc([C@H]2C[C@@]3(C)[C@@H](CC[C@@]3(O)C(F)(F)C(F)(F)F)[C@@H]3CCC4=CC(=O)CCC4=C32)cc1		human, pooled serum	oral, 200 mg, day 1, 1.5 h		serum concentration	20.8 ng/mL
N#Cc1ccc2c(c1)[C@H]1CCCN(C(=O)c3ccc4[nH]cnc4c3)[C@H]1C2		human	40 mg, day 15		minimum ACTH level	4.3 pmol/L
